Experimental data collected from several papers.
Compare with care: the assays were run in different laboratories.
Target: Serine/threonine-protein kinase tousled-like 2 (TLK2, Homo sapiens, UniProt Q86UE8)

COc1c(Cl)cccc1Nc1c(-c2ccncc2C#C[C@@]2(C)CCCN2C(=O)/C=C/CN(C)C)[nH]c2c1C(=O)NCC2 — remaining binding (cell-free assay, competition with immobilised ligand; 3 µM): 93%
O=C(Cc1ccc(OCc2ccccc2)cc1)NC1(C(=O)O)CCN(C(=O)c2ccc(-c3cccc(Cl)c3)cc2)CC1 — activity vs control (enzyme activity, inhibitor; 10 µM): 110%
COc1ccc(NC(=O)Nc2ccc3c(c2)C(=O)N(C(C)CO)CC(C)C(CN(C)Cc2ccc4c(c2)OCO4)O3)cc1 (centres unmarked) — remaining activity (kinase activity, KinaseProfiler; 0.03 µM, species human; baseline: control): 121%
CS(=O)(=O)Nc1cccc(-c2csc3cnc(Nc4ccc(N5CCN(CCCCCOc6cccc7c6C(=O)N(C6CCC(=O)NC6=O)C7=O)CC5)cc4)nc23)c1 (centres unmarked) — inhibition (probe labelling, inhibitor, KiNativ chemoproteomics; MOLT-4; 1 µM): 25.5%
C=CC(=O)N1Cc2nc(-c3cc(-c4cc(Cl)cnc4Cl)c(F)cc3F)n(-c3ccncn3)c2C1 — inhibition (cell-free assay, inhibitor; 1 µM): 8%
Nc1ncc(-c2cc(-c3cnn(CC(F)(F)F)c3)ncc2F)nc1C(=O)NC1CNCC(F)C1 (centres unmarked) — remaining activity (enzyme activity; 1 µM; baseline: DMSO control): 83.6%
COc1cc(Nc2nc(C)cc(-c3cnn4nc(OC)ccc34)n2)cc(C(F)(F)F)c1 — remaining binding (binding, competition with immobilised ligand; 1 µM): 98%
CN1CCN(Cc2ccc(-c3ccc(CO[C@H]4CCC[C@@H]4NC(=O)c4cc(-c5cnn(C)c5)cnc4N)cc3)cc2)CC1 — inhibition (enzyme activity, inhibitor; 0.1 µM): 5%
NC(=O)[C@@H](O)C[C@H]1CCc2sc3ncnc(O[C@H]4CC[C@H](N5CCOCC5)CC4)c3c21 — inhibition (enzyme activity, inhibitor; 10 µM): -5%
COc1c(OCCCN2CCOCC2)ccc2c1N=C(NC(=O)c1cnc(N)nc1)N1CCN=C21 — remaining activity (kinase activity, inhibitor; 1 µM; baseline: untreated control): 103%
CCN1CCN(Cc2ccc(NC(=O)c3ccc(C)c(NC(=O)c4cncc(-c5cnn(C)c5)c4)c3)cc2C(F)(F)F)CC1 — remaining binding (binding, competition with immobilised ligand; 1 µM): 96%
CC(C)=CC1OC(C)(C)C2C=C3C(=O)C(Cl)=CC(O)C3C3C(O)C4OC4C(=O)C132 (centres unmarked) — remaining binding (cell-free assay, competition with immobilised ligand; 10 µM): 94%
Cc1ccc(C(=O)Nc2ccc(CN3CCN(C)CC3)c(C(F)(F)F)c2)cc1C#Cc1cnc2cccnn12 — Hill slope (target engagement, NanoBRET; human cells): 0.112
O=C=[N][Ru-4]123([n]4c5ccc(O)cc5c5c6c(c7cc(F)c[n+]1c7c54)C(=O)NC6=O)[S+]1CC[S+]2CC[S+]3CC1 (centres unmarked) — remaining activity (enzyme activity; 100 nM, human enzyme, together with: 10 µM ATP; baseline: untreated): 108%
